Measured values gathered from unrelated publications.
Numbered parts are unrelated; each lists some results of a single study. Substitutions count along the parent as printed.

Block 1
Target: CCNE1, cyclin fold, Cln2 fusion (human)
Technique: yeast growth competition, sequencing
Medium: yeast
Notes: strong parent motif
Baseline: not given
Direction: higher = stronger binding
Starting sequence: ANKRD17 docking peptide (human); PSVRRQLFVTVVK; partner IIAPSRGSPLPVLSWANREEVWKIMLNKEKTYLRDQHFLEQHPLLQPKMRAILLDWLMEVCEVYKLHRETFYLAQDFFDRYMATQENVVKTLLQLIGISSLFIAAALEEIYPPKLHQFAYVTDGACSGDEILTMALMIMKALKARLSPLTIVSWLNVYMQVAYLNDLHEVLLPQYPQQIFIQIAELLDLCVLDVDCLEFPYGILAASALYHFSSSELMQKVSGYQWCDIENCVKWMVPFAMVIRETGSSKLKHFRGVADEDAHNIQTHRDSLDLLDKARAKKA
Change	normalised enrichment score
V12A	6.2
R5K F8L	1.05
T10A	4.81
R4A	2.16
F8A	1.17
V9A	3.87
S2A	3.97

Block 2
Target: RING finger protein unkempt homolog, zinc fingers 1-6, SBP tag (UNK, Homo sapiens, UniProt Q9C0B0, residues 30-357)
Chain of UniProt Q9C0B0 (30-357, looked up): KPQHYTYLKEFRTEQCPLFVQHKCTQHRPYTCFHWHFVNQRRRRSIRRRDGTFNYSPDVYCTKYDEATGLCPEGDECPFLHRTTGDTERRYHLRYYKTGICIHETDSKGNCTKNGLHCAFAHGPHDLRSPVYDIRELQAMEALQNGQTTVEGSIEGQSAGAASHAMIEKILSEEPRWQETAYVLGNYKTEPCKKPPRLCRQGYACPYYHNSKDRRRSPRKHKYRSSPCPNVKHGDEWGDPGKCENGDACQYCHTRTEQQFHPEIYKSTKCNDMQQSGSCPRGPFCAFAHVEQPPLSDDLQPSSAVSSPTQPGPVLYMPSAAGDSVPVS
Technique: RNA Bind-n-Seq
Form: RNA
Medium: in vitro
Concentration: 100 nM
Notes: RNA with constant flanks, vertebrate orthologous sites, ends assumed
Baseline: input RNA pool
Direction: higher = stronger binding
Constant ends, left off below: GGGAGUUCUACAGUCCGACGAUC … CAACAGAGGAUUGAGCAUCA
Sequence	bound/input enrichment [ratio]
AAGAUGGUGGUUGUACAUUAUUUCAUUUAGAAAAUAUAAAAAUUCAUUUUGUUUUGAAGCUAGGUAUUAACUGGAAUAGCUAUAUAUCCCUGAGAAUGGGGCAAUUGUGCCCUUCCCUUG	1.5
UUCAGGCUCAAUUGACUGUUUCACAGCAUUCCUUACACAGCUAUUUAACGAGUACAAGUGGAGUUAAUUUUCAGGAUACGUGUAGGCACUCGGCAUUAUCCUGCAGUCCAGUUGGAGAUG	0.22
AGAAAAUUUUAAUCAAGAAUCUGAAGGUAGAAAUACAGGACCAUGGUUAUCUUCCUCACUUAGAAAUAGAUGCACACCUUUGUUCUCUAGAAGGAGGCGAGAAGGAAGAGAUGAACCAUC	0.467
AUUCAAACCUGUGGUACCAUGGCCUCAUGUUGAAGGAGUAGAAGUGGACUUAGAGUCUAUUAGAAGAAAAAACAAGGCGAGAAAUGAACAAGAGCGCCAUGCUGGAGGAGAUAACCAGAA	0.633
CCAGUAUGUGUGUGCAUUAGUCACAUUCCUCUCUGUUCUGUUGAAGGAAAAAGAGACAUUUUAACCCUUUUAAGGUUGACUUUAUUUUAUGUUAUUUGGUUGCAUGAAGUUGCCCUUAAU	0.343
GGGACGCUUUGAUGUAAAAAUUGAAGUUAAGAGCUGAUCACAAGCACAAAUCUUUCUCACUAGCCAUUAAAAAGUUAAAAAACGAUACAAAAACAAAAAACCUACUAGUCUUGAACAAAC	1.39
GAGCUAAAGGAGUUAGCAUCUUUAUUUUUGUAUCAAAGAUAAAGGUUAUUUUGAAAUUAUUAAGAUUUUUACACAACUCUGAAAUCUGUUGCUUUUGUAAACCAAUCGUUUGAUCUUAGG	0.519
CUCACUUCCAGGUUGGGUCUAGUGGAAAAGUCAUAGGAAUUGACCACAUUAAAGAGCUAGUAGAUGACUCAAUAAAUAAUGUCAGAAAGGACGAUCCAAUGCUUUUGUCUUCAGGGAGAG	0.585
GUGAGGGUCUACUGACCACUCACUGUUAUGUCUGGUAUCUGUAAACACUCUUUUCGUUCUUAGUCUUUUUCUUGUAUAAUUGAUGUUCUUUAAAAUUGUUAAUGUAUAACAGGGCUUAUG	1.83
AAUCAGUAGAAUUACAUGAUACUAAACUUGCAUUUGAAAGGAUAUCCAAGUAUGUGUUGGUAGUUACUAAAAGAAUUAUAGCUGUUAUUGCCUUGUAUUUAUAGUCCUUGUUUCAGGUUU	0.924
AUUUAGAAUGUGUUUGGUUAUAGUUAGUGGUCUCAUUCCCUCGUUCCUUUUUCAUUAACGUAGCUGUAAUAGUAUGAGUGAAGAGGAGGCUUGUGCCAGUAGACAUUGUUACUGCAUCAG	0.846

Block 3
Target: CDC34 UBC core domain (UniProt P49427)
Technique: yeast two-hybrid
Medium: yeast
Notes: mostly zero background
Baseline: not given
Direction: higher = stronger interaction
B1: TRIM13 RING domain (UniProt O60858); chain MELLEEDLTCPICCSLFDDPRVLPCSHNFCKKCLEGILEGSVRNSLWRPAPFKCPTCRKETSATGINS
B2: DTX4 RING domain (UniProt Q9Y2E6); chain QKVRHPPDEDCTICMERLTAPSGYKGPQPTVKPDLVGKLSRCGHVYHIYCLVAMYNNGNKDGSLQCPTCKTIYGVKTGTQ
B3: RNF208 RING domain (UniProt Q9H0X6); chain SSAAAGEPLECPTCGHSYNVTQRRPRVLSCLHSVCEQCLQILYESCPKYKFISCPTCRRETVLFTDYG
B4: TRIM4 RING domain (UniProt Q9C037); chain EAEDIQEELTCPICLDYFQDPVSIECGHNFCRGCLHRNWAPGGGPFPCPECRHPSAPAALRP
B5: TRIM43 RING domain (UniProt Q96BQ3); chain FSHAFQKELTCVICLNYLVDPVTICCGHSFCRPCLCLSWEEAQSPANCPACREPSPKMDFKT
Residues (chain): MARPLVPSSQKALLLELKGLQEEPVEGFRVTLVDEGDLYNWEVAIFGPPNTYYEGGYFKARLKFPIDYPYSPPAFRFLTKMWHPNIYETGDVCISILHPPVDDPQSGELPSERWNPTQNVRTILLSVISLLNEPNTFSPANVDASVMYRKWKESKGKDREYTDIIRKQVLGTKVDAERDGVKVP
Sequence	lacZ reporter activity
B1 (TRIM13 RING domain)	0
B2 (DTX4 RING domain)	0
PAELEVQASECVVCLEREAQMIFLNCGHVCCCQQCCQPLRTCPLCRQDIAQRLRIY (LRSAM1 RING domain (UniProt Q6UWE0))	0
B3 (RNF208 RING domain)	0
B4 (TRIM4 RING domain)	0
GAAPGPEAAECLVCSELALLVLFSPCQHRTVCEECARRMKKCIRCQVVVSKKLRPD (MIB2 RING domain (UniProt Q96AX9))	0
MPIRALCTICSDFFDHSRDVAAIHCGHTFHLQCLIQWFETAPSRTCPQCRIQVGKRTIIN (TRAIP RING domain (UniProt Q9BWF2))	0
FQGDVDEDLICPICSGVLEEPVQAPHCEHAFCNACITQWFSQQQTCPVDRSVVTVAHLRP (RNF41 RING domain (UniProt Q9H4P4))	0
B5 (TRIM43 RING domain)	0

Block 4
Target: MAFG, bZIP domain (human)
Technique: DHFR protein complementation
Medium: yeast
Notes: single substitutions, most at no-binding floor
Baseline: wild-type JUN-FOS pair
Direction: higher = stronger binding
Starting sequence: JUN, bZIP domain (human); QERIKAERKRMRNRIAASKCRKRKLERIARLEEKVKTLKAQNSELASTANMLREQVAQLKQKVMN; partner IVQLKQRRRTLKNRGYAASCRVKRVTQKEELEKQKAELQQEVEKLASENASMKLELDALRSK
Change	binding fitness [natural log]
A40P	-1.49
A49R	-1.43
A57H	-1.42
L52I	-1.52
T48M	-1.43
R53L	-1.58
I28G	-1.49
A49T	-1.47
A46I	-1.38
S43N	-1.48
E33C	-1.52
E44M	-1.49
E32L	-1.4
A29G	-1.4
Q41N	-1.18
A46W	-1.5
S47G	-1.33

Block 5
Target: ABI1, truncated, D143A, DHFR fusion (Arabidopsis thaliana)
Technique: DHFR PCA, deep sequencing
Medium: yeast
Notes: methotrexate growth selection, single substitutions
Added: (+)-ABA 0.032 µM
Baseline: wild-type fitted maximum
Direction: higher = stronger binding
Starting sequence: PYL1, truncated, DHFR fusion (Arabidopsis thaliana); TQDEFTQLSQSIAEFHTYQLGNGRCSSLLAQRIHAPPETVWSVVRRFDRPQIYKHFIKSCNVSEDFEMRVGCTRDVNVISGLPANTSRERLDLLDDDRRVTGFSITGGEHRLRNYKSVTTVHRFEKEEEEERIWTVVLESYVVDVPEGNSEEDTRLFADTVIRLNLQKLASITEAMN; partner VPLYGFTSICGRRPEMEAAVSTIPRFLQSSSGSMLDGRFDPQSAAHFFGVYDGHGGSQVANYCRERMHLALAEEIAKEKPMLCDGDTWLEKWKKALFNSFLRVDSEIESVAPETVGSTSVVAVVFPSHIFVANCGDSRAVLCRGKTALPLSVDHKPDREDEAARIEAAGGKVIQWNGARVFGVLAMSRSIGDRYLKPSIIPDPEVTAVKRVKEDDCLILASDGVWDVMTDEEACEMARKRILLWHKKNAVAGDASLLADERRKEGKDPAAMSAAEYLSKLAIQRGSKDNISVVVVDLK
Change	relative binding score [%]
S9H	40.8
Y115M	2.61
R45S	0.414
L138P	-0.306
R98Y	5.78
C60W	-1
N149M	49
L91I	-1.11
G21V	17.1
L164Y	-2.09
E109C	12.4
L28Y	-1.77

Block 6
Target: TAR DNA-binding protein 43, full length, His tag (TARDBP, Homo sapiens, UniProt Q13148, residues 1-414)
Technique: RNA Bind-n-Seq
Form: RNA
Medium: in vitro
Concentration: 20 nM
Notes: 6-mer, flanks averaged, single round
Added: 150 mM KCl
Baseline: input library
Direction: higher = stronger binding
Sequence	6-mer enrichment (R)
UCCCGA	0.643
AGUCUG	0.79
AGCGUA	0.809
GCUGUU	0.78
GGUCUG	1.46
ACGGGC	2.15
GUGCGU	1.47
GUAUGA	1.22
AGCUUU	0.589
AUAAAC	0.627
UCGUAA	0.587
CCUUGA	0.776
AAAUCG	0.599
AGGCAU	0.823
GUUACA	0.643
GGCUGC	1.51
CGAGAC	0.84
AGCUCU	0.586
GCAGAG	1.81
UAAGAG	1.05
UGUUCG	0.76
AUAAGC	0.668

Repeated from above (block 6):
Sequence	6-mer enrichment (R)
GUAUGA	1.22
GUGCGU	1.47
CGAGAC	0.84
GCUGUU	0.78
AUAAAC	0.627
GCAGAG	1.81
AGCGUA	0.809
AGCUUU	0.589
UGUUCG	0.76
